Results pooled from the literature.
Protocols differ between the studies behind these lines. “And” joins repeats or separate records; there may be more than shown. Numbers after ± are the reported error. ≈ marks a conversion by molar mass, not a printed value.

Structure (SMILES) | assay | system | setting | how to read | endpoint | result
Cc1sc2c(c1C)C(c1ccc(Cl)cc1)=N[C@@H](CC(=O)OC(C)(C)C)c1nnc(C)n1-2 | LC-MS | Ringer's solution with 10% β-cyclodextrin | 50 ng/mL, time not given, glass vessel, low-bind vial | – | recovery vs nominal | 95.8% and 94.5%
CC(=O)N[C@H](CCCCNC(=O)C(C)F)C(=O)N[C@@H](CS)C(=O)N[C@@H](CS)C(=O)N[C@@H](CCC(=O)O)C(=O)N[C@@H](Cc1c[nH]cn1)C(=O)N[C@H](Cc1ccccc1)C(=O)N[C@@H](CCCNC(=N)N)C(=O)N[C@@H](Cc1c[nH]c2ccccc12)C(=O)N[C@@H](CS)C(=O)N[C@@H](CCCNC(=N)N)C(=O)N1CCC[C@H]1C(=O)N[C@H](C(N)=O)C(C)C (stereo partly shown) [fluorine-18 labelled] | – | C57BL/6 mice, male, B16-F10 tumour, heart | intravenous, 2 h | – | tissue uptake | 0.31 ± 0.06 %ID/g
CCCCCOc1ccc(-c2cc(-c3ccc(C(=O)N[C@H]4C[C@@H](O)[C@@H](O)NC(=O)[C@@H]5[C@@H](O)[C@@H](C)CN5C(=O)[C@H]([C@H](O)CC(N)=O)NC(=O)[C@H]([C@H](O)[C@@H](O)c5ccc(O)c(OS(=O)(=O)O)c5)NC(=O)[C@@H]5C[C@@H](O)CN5C(=O)[C@H]([C@@H](C)O)NC4=O)cc3)no2)cc1 | – | human paediatric patients 6 to sample C years, plasma | intravenous, 3 mg/kg once daily, day 7, median | – | steady-state clearance | 6.33 mL/min
CS(=O)(=O)CCCn1c(Cn2c(=O)n(CC(F)(F)F)c3ccncc32)cc2cc(Cl)ccc21 | – | RSV-infected infants | concentration not given, all dose cohorts | – | patients with low MCH | 11%
CC(=O)CO | – | human skin ex vivo | 500 µL infinite dose, 5% m/V, glycerol/water vehicle | – | steady-state flux | 58.3 ± 39.9 µg/cm²/h
Oc1ccc2ccc3c4ccccc4cc4ccc1c2c43 | UPLC-AMS | human, plasma | oral, 250 ng of [14C]-BaP | – | AUC | 35.7 ± 28.9 fg BaP equivalents·h/mL
CN[C@@](C)(C[18F])C(=O)O | – | SCID mouse SK-OV-3 xenograft, kidney | 15 min, post injection | – | tissue uptake | 18 ± 3.4 %ID/g
CC[C@H](C)[C@H](NC(=O)[C@H](CC(C)C)NC(=O)[C@H](Cc1c[nH]c2ccccc12)NC(=O)[C@H](CCC(N)=O)NC(=O)[C@@H](NC(=O)[C@H](Cc1ccccc1)NC(=O)[C@H](C)NC(=O)[C@H](CCCCNC(=O)COCCOCCNC(=O)COCCOCCNC(=O)CC[C@H](NC(=O)CCCCCCCCCCCCCCCCCCC(=O)O)C(=O)O)NC(=O)[C@H](CCC(N)=O)NC(=O)[C@H](C)NC(=O)[C@@H](NC(=O)[C@H](CCCCN)NC(=O)[C@H](CC(=O)O)NC(=O)[C@H](CC(C)C)NC(=O)C(C)(C)NC(=O)[C@@H](NC(=O)[C@H](CO)NC(=O)[C@H](Cc1ccc(O)cc1)NC(=O)[C@H](CC(=O)O)NC(=O)[C@H](CO)NC(=O)[C@@H](NC(=O)[C@H](Cc1ccccc1)NC(=O)[C@@H](NC(=O)CNC(=O)[C@H](CCC(=O)O)NC(=O)C(C)(C)NC(=O)[C@@H](N)Cc1ccc(O)cc1)[C@@H](C)O)[C@@H](C)O)[C@@H](C)CC)[C@@H](C)CC)C(C)C)C(=O)N[C@@H](C)C(=O)NCC(=O)NCC(=O)N1CCC[C@H]1C(=O)N[C@@H](CO)C(=O)N[C@@H](CO)C(=O)NCC(=O)N[C@@H](C)C(=O)N1CCC[C@H]1C(=O)N1CCC[C@H]1C(=O)N1CCC[C@H]1C(=O)N[C@@H](CO)C(N)=O | – | humans with end-stage renal disease | subcutaneous, 5 mg | baseline: ESRD over normal renal function | AUClast ratio | 1.13
CCCCCCCCCCCC[N+](C)(C)C | in vitro-in vivo extrapolation | human | – | – | hepatic clearance | 0.114 mL/h/g liver
CC1N=C(c2ccccc2F)c2cc(Nc3ccc(C#N)cc3)ccc2NC1=O (stereo not shown) | shake flask | PBS | 24 h, pH 7.4 | – | solubility | 3.57 µM (≈ 1.37 µg/mL)
COc1cc2c(c(OC)c1OC)-c1ccc(OC)c(=O)cc1[C@@H](NC(C)=O)CC2 | – | human, male, plasma | oral, 10 mg, together with: allopurinol 300 mg | baseline: combination over alone | AUC(0-24) ratio | 109%
CCCCCCCCCCCCCCCCCC(=O)N[C@H](C(=O)N[C@H](C(=O)N[C@@H](CCCNC(=N)N)C(=O)N[C@@H](CCCNC(=N)N)C(=O)N[C@@H](C)C(=O)N[C@@H](CC(=O)O)C(=O)N[C@@H](CCCNC(=N)N)C(=O)N[C@@H](C)C(=O)N[C@@H](C)C(=O)N[C@H](C(=O)N1CCC[C@H]1C(=O)NCC(=O)NCC(=O)NCC(=O)NCC(=O)N[C@@H](CCCNC(=N)N)C(=O)NCC(=O)N[C@@H](CC(=O)O)C(=O)O)C(C)C)C(C)C)[C@@H](C)CC | ELISA | Sprague Dawley rat male, blood | intravenous, 2.415 mg/kg | – | terminal half-life | ~25.8 min
O=c1[nH]c(Cc2ccccn2)nc2c1cnn2C1CCOCC1 | – | healthy men, extensive metabolizers, plasma | oral, 25 mg single dose, tablet, median | – | Tmax | 30 min
O=C(NCCS)c1cccc(C(=O)NCCS)c1 | – | rat Sprague-Dawley male | intravenous, 1 mg/kg, 6 h | – | plasma concentration | 0.0394 µg/mL
[123I]c1cncc(OC[C@@H]2CCN2)c1 | SPECT | human, temporal lobe | intravenous bolus, 2.1 mCi | baseline: plasma | tissue/plasma ratio | 10.4
[Cl-].[Cs+] | – | air-water interface, water droplet | – | – | surface partition coefficient | ~0 m
O=C(CC(=O)c1ccccc1)c1ccccc1 | – | male C57BL/6J mouse, Nrf2 wild type, plasma | intraperitoneal, 100 mg/kg | – | terminal half-life | 141 min
CSCC[C@@H]1NC(=O)[C@H](CC(=O)O)NC(=O)CNC(=O)[C@H](CCCNC(=N)N)NC(=O)[C@H](C)NC(=O)[C@H](CCC(=O)O)NC(=O)[C@H](CCCNC(=N)N)NC(=O)[C@@H]2CSSC[C@@H]3NC(=O)[C@H](CO)NC(=O)[C@H]([C@@H](C)O)NC(=O)[C@@H]4CCCN4C(=O)[C@H](C)NC(=O)[C@H](Cc4c[nH]c5ccccc45)NC(=O)[C@H](CC(=O)O)NC(=O)CNC(=O)[C@H](CCCNC(=N)N)NC(=O)CNC(=O)[C@H](CCC(N)=O)NC(=O)[C@@H]4CCCN4C(=O)[C@@H](NC(=O)CNC(=O)C(C)F)CSSC[C@H](NC(=O)CNC(=O)[C@H](C)NC(=O)[C@H](CC(C)C)NC(=O)[C@H](CSSC[C@@H](C(=O)NCC(N)=O)NC(=O)[C@H]([C@@H](C)O)NC(=O)[C@H](CCCNC(=N)N)NC(=O)[C@@H]4CCCN4C1=O)NC(=O)[C@H](CC(=O)O)NC(=O)[C@H](CO)NC(=O)[C@H](CC(=O)O)NC(=O)[C@H](CCC(N)=O)NC(=O)[C@H](CO)NC3=O)C(=O)N[C@@H](C(C)C)C(=O)N2 (stereo partly shown) [fluorine-18 labelled] | – | nude mouse, U-87 MG xenograft, skin | intravenous, 2.5 h, together with: cyclo(RGDyK) co-injected | – | tissue uptake | 0.27 ± 0.01 %ID/g
CCCCCOc1ccc(-c2ccc(-c3ccc(C(=O)N[C@H]4C[C@@H](O)[C@@H](O)NC(=O)[C@@H]5[C@@H](O)[C@@H](C)CN5C(=O)[C@H]([C@@H](C)O)NC(=O)[C@H]([C@H](O)[C@@H](O)c5ccc(O)cc5)NC(=O)[C@@H]5C[C@@H](O)CN5C(=O)[C@H]([C@@H](C)O)NC4=O)cc3)cc2)cc1 | noncompartmental | human neonates not on ECMO, plasma | intravenous, 1.5 mg/kg/day maintenance, doses 3-5 | – | median AUC at steady state | 81.9 µg·h/mL
Oc1cccc2ccccc12 | fish short-term reproduction | Oryzias latipes, male, water, flow-through | 258 µg/L, end of exposure | – | body weight | 598 ± 30 mg
N#Cc1ccc(N2N=C3c4ccc(C(=O)N5CCC(O)CC5)nc4CC[C@@H]3[C@@H]2C2CCCC2)cc1Cl | – | human, plasma | concentration not given, together with: itraconazole | baseline: with itraconazole over alone | AUClast ratio | ~1.7 fold
COC(=O)N[C@H](C(=O)N1CCC[C@H]1C(=O)Nc1ccc([C@@H]2CC[C@@H](c3ccc(NC(=O)[C@@H]4CCCN4C(=O)[C@@H](NC(=O)OC)C(C)C)cc3)N2c2ccc(C(C)(C)C)cc2)cc1)C(C)C | – | healthy volunteers | oral, dose not given, with digoxin | – | AUCtau | 1.46 µg·h/mL

Repeated from above:
Structure (SMILES) | assay | system | setting | how to read | endpoint | result
CSCC[C@@H]1NC(=O)[C@H](CC(=O)O)NC(=O)CNC(=O)[C@H](CCCNC(=N)N)NC(=O)[C@H](C)NC(=O)[C@H](CCC(=O)O)NC(=O)[C@H](CCCNC(=N)N)NC(=O)[C@@H]2CSSC[C@@H]3NC(=O)[C@H](CO)NC(=O)[C@H]([C@@H](C)O)NC(=O)[C@@H]4CCCN4C(=O)[C@H](C)NC(=O)[C@H](Cc4c[nH]c5ccccc45)NC(=O)[C@H](CC(=O)O)NC(=O)CNC(=O)[C@H](CCCNC(=N)N)NC(=O)CNC(=O)[C@H](CCC(N)=O)NC(=O)[C@@H]4CCCN4C(=O)[C@@H](NC(=O)CNC(=O)C(C)F)CSSC[C@H](NC(=O)CNC(=O)[C@H](C)NC(=O)[C@H](CC(C)C)NC(=O)[C@H](CSSC[C@@H](C(=O)NCC(N)=O)NC(=O)[C@H]([C@@H](C)O)NC(=O)[C@H](CCCNC(=N)N)NC(=O)[C@@H]4CCCN4C1=O)NC(=O)[C@H](CC(=O)O)NC(=O)[C@H](CO)NC(=O)[C@H](CC(=O)O)NC(=O)[C@H](CCC(N)=O)NC(=O)[C@H](CO)NC3=O)C(=O)N[C@@H](C(C)C)C(=O)N2 (stereo partly shown) [fluorine-18 labelled] | – | nude mouse, U-87 MG xenograft, skin | intravenous, 2.5 h, together with: cyclo(RGDyK) co-injected | – | tissue uptake | 0.27 ± 0.01 %ID/g
O=C(NCCS)c1cccc(C(=O)NCCS)c1 | – | rat Sprague-Dawley male | intravenous, 1 mg/kg, 6 h | – | plasma concentration | 0.0394 µg/mL
CC(=O)CO | – | human skin ex vivo | 500 µL infinite dose, 5% m/V, glycerol/water vehicle | – | steady-state flux | 58.3 ± 39.9 µg/cm²/h
